Results of several laboratories.
A part holds a random share of what one study measured.

Set 1
Target: Histone acetyltransferase KAT6A, winged helix 1, GST fusion (KAT6A, Homo sapiens, UniProt Q92794, residues 1-85)
Method: protein binding microarray
Form: double-stranded DNA, one strand shown
Sample: in vitro
Concentration: not given
Setting: 8-mer, flanks averaged, mean of 2 arrays, mostly near background
Reference: not given
Reading: higher = stronger binding
Construct (chain): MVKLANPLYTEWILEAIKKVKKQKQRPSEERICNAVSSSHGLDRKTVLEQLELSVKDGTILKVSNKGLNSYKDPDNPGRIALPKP
| Oligonucleotide | E-score |
| --- | --- |
| ACCGGACC | 0.199 |
| CTCATTTA | -0.22 |
| ACATGAGG | -0.0941 |
| CCCTTAGG | -0.203 |
| CTCTAACA | -0.0564 |
| GTTCGCAA | 0.0724 |
| AGGCTTGA | -0.234 |
| CGGCCTAG | 0.15 |
| CACGAATG | -0.21 |
| GAAACATA | 0.0484 |
| CGACTCTC | -0.102 |
| ACGTCCAT | -0.203 |
| ACTCCACA | -0.269 |
| CCTACAGC | 0.105 |
| AGCGACAT | -0.00487 |
| ATAAACGC | 0.173 |
| CTAGTTTC | 0.0206 |
| GGGTCTCA | 0.14 |
| ATTGCGTC | 0.158 |
| CGGGTGGA | 0.239 |
| ACACGTCC | -0.0255 |
| TAAAAGAA | -0.0343 |
| TAAACATA | -0.113 |
| CGGCATCA | 0.332 |
| AAACAGAA | -0.233 |

Set 2
Target: Sal-like protein 4, full length isoform B (SALL4, Homo sapiens, UniProt Q9UJQ4-2, residues 1-616)
Method: universal PBM
Form: double-stranded DNA, one strand shown
Sample: in vitro
Concentration: not given
Setting: 8-mer, flanks averaged, mean of replicates
Reading: higher = stronger binding
| Oligonucleotide | E-score |
| --- | --- |
| CGCTGCAC | -0.249 |
| ACACGAGT | -0.0259 |
| AGCTGCCG | -0.253 |
| TGGTTTAA | 0.206 |
| AGCTATTC | 0.0216 |
| GCAGTGAC | -0.2 |
| CCCGTCCA | -0.118 |
| ACGTTGCG | -0.0881 |
| ATTATAGC | 0.216 |
| CCTTAATA | 0.239 |
| GACATCGC | -0.151 |
| AATAGAAG | 0.141 |
| TCCAACGA | 0.0995 |
| AGTCTGTA | 0.0634 |
| GTGTTTAA | 0.162 |
| AAGGTGAG | -0.179 |
| CCCGACGA | -0.117 |
| CAGTTTAA | 0.152 |
| AAAATATG | 0.398 |
| GGATAAGA | 0.0306 |
| GGGATAGA | -0.0428 |
| ATCCTTGG | -0.0411 |
| AACCCGGG | -0.308 |
| TGACAAAA | 0.258 |
| AACCGATA | 0.115 |

Set 3
Target: RNA binding protein fox-1 homolog 2, RRM domain, GST-SBP tag (RBFOX2, Homo sapiens, UniProt O43251-10, residues 100-194)
Method: RNA Bind-n-Seq
Form: RNA
Sample: in vitro
Concentration: 365 nM
Setting: natural RNA segment, single round, ends assumed
Reference: no-protein control
Reading: higher = stronger binding
All sequences stand within: GGGAGUUCUACAGUCCGACGAUC … UGGAAUUCUCGGGUGCCAA
Residues (chain): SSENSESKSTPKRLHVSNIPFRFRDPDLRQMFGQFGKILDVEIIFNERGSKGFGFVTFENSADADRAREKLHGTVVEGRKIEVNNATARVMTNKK
| Oligonucleotide | RBNS enrichment (R) |
| --- | --- |
| UCAGGGAGCUCUUCUCUGGGGCUGGAACAGUUGAUUAUGCAACCCCAUUGUGUGGAGAUUGGAUCAACUGAGUUGUGUUAUUUUUGUUUUAAGUCACCUUGUGCGAGAAC | 1.13 |
| GGAAGUCUCAGAACCAGGAAGGAAACCCUGUGGAGGCUGCCCUUUGACCUUUGGACGCCACCUGUAAUCACUCUGGAUGGUGUCUGUGGAGUUCAGGUUUAUUUUCUAUU | 0.31 |
| UCCAGAGGCUUCACCACCUUGCACUGCUCUAUCUGGUUGGGGGUGGGCAGGAGAACCCCUCGCUUUCCCCACCAUGGGAGCAUUUGCUGGGAAGUGUCUUUUCAGGACUU | 0.231 |
| UUGUCAACACAACACUUUGUCCCCGCUCCGGGAGAUGAGUCAGAUGGUGGCUUGAGUUGUCACUUGGUCCCCUCCGCCCCUCGGGUGGCCCCCUUUGCCACGUCCCCUUA | 0.294 |
| GAAAGGCUUUGAGGGGCUCUGGCUGGUGGCCAGGUUGGCUUUUUGUAUUUCUGGUUGACACACCAUGGCGCUUCCCAGCACAGACAUGUGACCAGCAUGGUCCAGGAAAA | 1 |
| UCCACCACAUCUUGAUUCUUGCAGGAGGGAAGAUUUGAUCCCUUAGAGAAAUAGCCUGUGGGACUUGUUAAAGAAGAUAGAUAGUAAGAAAAGCAGCCAUUGCGUGCCCU | 1.11 |
| CAAAACCAGCAUCUGUUACUGGAACAGAGACCUCAGCCCAAGCUCAGGACAAGGAGGCCUCCCUGGGAGAGGGGGCCUUUCUCCCACCAUCACCGCCUGUGUCCUUCAGG | 3.16 |
| UCUCAGUGUUUUCUUCAAAACUUCUCCAAGAGAGUCCAGGCUCUCACAUCGUCUUCCUGUGCGACCUAUUAGAGAGAUGAAAAGCCUUUGAAAACAGCUAGCUCUGCAUU | 1.2 |
| UUUUGUGUAGGGUCAAGUUAUUUUUAUAUGAGUUAAUGUGAAAUUGUAAAUGGAAAUUUUUCCUUAAAAUACAACACAAUGAUGUCUGUAUAAAUCUGUCUGUUUAGAAU | 0.481 |
| UCUUCCUGCAGUUGAUGUAAUUGCUUUGUUUGCAAUAGCACAAGCUGCAUUAUUCCAGUCAGGACUGUGAUAACUUGCUGCCAGCCCCACUCAACUUUCAGUUGGCUCUG | 0.367 |
| ACGUGGCCCCUUGACCCGGGCGGCCCCGCCGCUUCUUUCCUUCCUGCAGUUCCCAGCCCUCGGAGCCCCCAUCCCUUAUCUUACCCCCACCGCGCUCCCCCAGGAGCGCU | 0.574 |
| CUGCUUGUCACUCGGCAGCUUAGGGCCUCUGCGCAGGAACCUGACUAGGACUAUGACCUCCACGGCGGCUGUUUAGGUCUCGACUUACAUCAGAAUCUUGCACAGCAUUG | 0.264 |

Set 4
Target: Fragile X messenger ribonucleoprotein 1, C-terminal low-complexity region (Fmr1, Mus musculus, UniProt P35922)
Method: RNA Bind-n-Seq
Form: RNA
Sample: in vitro
Concentration: 200 nM
Setting: whole 134-nt RNA, ends assumed
With: 150 mM LiCl
Reference: input library
Reading: higher = stronger binding
Library: 7-deaza-guanosine replaces G
All sequences stand within: GGGAGUUCUACAGUCCGACGAUC … UGGAAUUCUCGGGUGUCAAGG
| Oligonucleotide | log2 enrichment |
| --- | --- |
| CUCAAGUCCUGUGCUACACAUCGUAUGUACCGAAUCGGGCCGGGCCGGGGCCGGAAAGUAUUAUGUUACGCCGUUCGGAUCUGCACUUCC | 1.05 |
| UCCUGUGCUACACAUCGUAUGUACCGAAUCGGGAAAAAAAGGGAAAGGGUUUUUUUGGGAAAGUAUUAUGUUACGCCGUUCGGAUCUGCA | -1.22 |
| AAGUCCUGUGCUACACAUCGUAUGUACCGAAUCGGGAAAAGGGGAAAAGGAAAAGGAAAGUAUUAUGUUACGCCGUUCGGAUCUGCACUU | -0.565 |
| UGGGAGGUGGAUUUUGUUUAUUUUUUUAGCUCAUUUCCAGUGGUGGGAAUUUUUUUUUAAUAUGUGUCAUGAAUAAAGUUGUUUUUGAAA | -0.441 |
| CUCAAGUCCUGUGCUACACAUCGUAUGUACCGAAUCGGGUGGGGUGGGGUGGGGAAAGUAUUAUGUUACGCCGUUCGGAUCUGCACUUCC | -0.615 |
| GUCCUGUGCUACACAUCGUAUGUACCGAAUCAAAUUUUUAAACCCCCAAACCCCCAAAAAAGUAUUAUGUUACGCCGUUCGGAUCUGCAC | 1.07 |
| CUCAAGUCCUGUGCUACACAUCGUAUGUACCGAAUCGGGUGGGAGGGUUUGGGAAAGUAUUAUGUUACGCCGUUCGGAUCUGCACUUCCA | -0.354 |
| UGGGAGGUGGAUUUUGGUUAUUUUUUUAGCUCAUUUCCAGGGGUGGGAAUUUUUUUUUAAUAUGUGUCAUGAAUAAAGUUGUUUUUGAAA | 0.364 |
| AGUCCUGUGCUACACAUCGUAUGUACCGAAUCGGGGUUUUUUUGGGGUGGGGAGGGGAAAGUAUUAUGUUACGCCGUUCGGAUCUGCACU | 0.364 |
| AGUCCUGUGCUACACAUCGUAUGUACCGAAUCGGGUUUGGGAAAGGGAAAAAAAGGGAAAGUAUUAUGUUACGCCGUUCGGAUCUGCACU | -0.684 |
| GUCCUGUGCUACACAUCGUAUGUACCGAAUCGGUUUUUUUGGAAAAAGGUUUUUUUGGAAAGUAUUAUGUUACGCCGUUCGGAUCUGCAC | -3.12 |
